{"data": "Results from different studies", "note": "Every numbered part comes from another study and shows a few of its results, in no order."}
{"data": "Sample 1", "target": "Histone acetyltransferase KAT6A, winged helix 2, GST fusion (KAT6A, Homo sapiens, UniProt Q92794, residues 85-181)", "technique": "protein binding microarray", "form": "double-stranded DNA, one strand shown", "medium": "in vitro", "concentration": "not given", "setting": "8-mer, flanks averaged, mean of 2 arrays, mostly near background", "baseline": "not given", "reading": "higher = stronger binding", "Residues (chain)": "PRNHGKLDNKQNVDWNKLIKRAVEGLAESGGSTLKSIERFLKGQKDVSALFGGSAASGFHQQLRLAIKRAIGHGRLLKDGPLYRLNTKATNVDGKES"}
{"Strand": "CTAGCAAA", "E-score": 0.0773}
{"Strand": "CCCGGAGC", "E-score": 0.277}
{"Strand": "GGTTTAGA", "E-score": 0.00957}
{"Strand": "GTCACGAA", "E-score": -0.0676}
{"Strand": "AATCTCGA", "E-score": -0.0246}
{"Strand": "ACACATCA", "E-score": -0.157}
{"Strand": "GTCTGGAA", "E-score": -0.083}
{"Strand": "CCGAATTC", "E-score": 0.0196}
{"Strand": "TAAGACGA", "E-score": -0.129}
{"Strand": "AATGGCGG", "E-score": 0.0513}
{"Strand": "GTCTCCAA", "E-score": -0.0576}
{"Strand": "ACTGCATC", "E-score": 0.00559}
{"Strand": "ATCTGCAT", "E-score": 0.0115}
{"Strand": "CACTCTCA", "E-score": -0.077}
{"Strand": "CTGATTAA", "E-score": 0.13}
{"Strand": "AACCGCGC", "E-score": -0.0297}
{"Strand": "CCCTTAAC", "E-score": -0.156}
{"Strand": "CCAAGGGA", "E-score": -0.0518}
{"Strand": "GTGAAAAA", "E-score": 0.123}
{"Strand": "CAGCTATG", "E-score": 0.00754}
{"Strand": "GCTGGATA", "E-score": 0.0144}
{"Strand": "AGTGGGAG", "E-score": 0.0815}
{"Strand": "AGTCTCGA", "E-score": -0.0724}
{"Strand": "ATTGAGTA", "E-score": 0.0314}
{"Strand": "GTGACGTA", "E-score": -0.161}
{"data": "Sample 2", "target": "RNA binding protein fox-1 homolog 2, RRM domain, GST-SBP tag (RBFOX2, Homo sapiens, UniProt O43251-10, residues 100-194)", "technique": "RNA Bind-n-Seq", "form": "RNA", "medium": "in vitro", "concentration": "365 nM", "setting": "natural RNA segment, single round, ends assumed", "baseline": "no-protein control", "reading": "higher = stronger binding", "shared flanks, not repeated": "GGGAGUUCUACAGUCCGACGAUC … UGGAAUUCUCGGGUGCCAA", "Residues (chain)": "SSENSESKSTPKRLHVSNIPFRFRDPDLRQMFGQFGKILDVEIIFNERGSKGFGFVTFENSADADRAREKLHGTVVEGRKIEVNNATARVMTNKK"}
{"Strand": "AGGCAGUUACUCUUCCGAGUUUAUACUCGCCUCUUCUUUAAGAGGAUUUCCUGAAAAGGGAACACCGGAAUUUGAUUUGUGGCCAAAUUUACUGAGAAAAAGAUGAGGUU", "RBNS enrichment (R)": 0.477}
{"Strand": "AAAGCCUGAAAGCCAUUGGUGAUCCAGGGGCACCUUCUCUUCAGCUUGACUGGGCGUCUUCCGCUGCAUAACACUCAAGGUGUCUGCUCUAGUCAUCCAGAAACCCACUC", "RBNS enrichment (R)": 0.377}
{"Strand": "GCCUAUGUUGGGGGGGACCCUGCCUCAGCUGACCCGGCCUCUCUGCCCCACCCAAGCCCAAACUUGGUUUCUGUGAGAAUAGUGGAGGAAGGUGAGAUGGCCAGUUUGAA", "RBNS enrichment (R)": 0.421}
{"Strand": "AAUCCCUGUAUUUGGCUCUUGCAGCCUCAGGCACUGUGCCUACUCUCCAGGUCAUGUCCCUGUGGUUCUGGGGCCACCACUUGUGUAAAAUAAAGUACAGCCUGGACGCU", "RBNS enrichment (R)": 0.267}
{"Strand": "CACAGCUUCCUGUCCUUUGCCCUUGACUGUACUGAGUAUGUGGGUGGUUGACCCAUAUAGGCCAUGCCUCUAGCCAUCUGUGGAACCCUGUGGGUGUCAAGUAGAACCCA", "RBNS enrichment (R)": 0.48}
{"Strand": "AUGUGUUAAAAGGACUGCUUUUCCCCACUGUGUCCCUGUCAAAAAUCAACUGAACAUAUAUGUAAGAGUUAUUUAAAUUUUGAAAUUGGGACGUAUACAUUCUCCAUUCU", "RBNS enrichment (R)": 0.331}
{"Strand": "AUGACAUUCUGGCCUUGGACAGAUUCUGUUGUCCUCGACGCGUCUCUUUAUAAAGUGGUAAAAGCCUGAAAUUCAGGGCAGCUCUCCAUGAGGUGCUGAAGGGCUCUUUU", "RBNS enrichment (R)": 0.213}
{"Strand": "AGACCCUCUUCCCUUUGCCCUUCUCCUCCAAUACAUAAAGGACACAGACAAGGAACUUGCUGAAAGGCCAACCAUUUCAGGAUCAGUCAAAGGCAGCAAGCAGAUAGACU", "RBNS enrichment (R)": 0.171}
{"Strand": "UUUUUGUUUUGUGUUUCUUUUUUCUUAAUUUGUGUGAAUUGUACCUAGACAGGUUACAGAUUUAAUUUUCACCUACCAAGGGACAGUCUCCUCCCUGGACAAGGCUCAGU", "RBNS enrichment (R)": 0.67}
{"Strand": "UGACCUCAAGAGAAACAGCCUAAGAAGCCCGCCUUCUGGUCCCAAUCUGCAGACCCUCCAGCAGUUGGCUGUUGAGUCCCUGCUGUGGAAGUUCUCUUGACUAUCACCUG", "RBNS enrichment (R)": 0.248}
{"Strand": "UGACUGGCAGCUUCUCCUCCAGACUCCUAGCCCCGAGGUGCUGAUGGAGAUGCUCAAGGCCAGCAAGCCCCUCAGGCCAGCACUUCGCUUGCAGAAGCCAUCCAUUCACU", "RBNS enrichment (R)": 0.755}
{"Strand": "GCAGCCUCCCCAUACUCUGCUCCUGAUGUGGCAACCCUUGUCGGCUCCUGCCUUUGCCCCCCACUUUAAUCUAAGCACUGGGCCAUGAAAUCUGACACUAAGGUACCCUG", "RBNS enrichment (R)": 0.521}
{"data": "Sample 3", "target": "Ras GTPase-activating protein-binding protein 1, RRM domain (G3BP1, Homo sapiens, UniProt Q13283)", "technique": "RNA Bind-n-Seq", "form": "RNA", "medium": "in vitro", "concentration": "1 µM", "setting": "whole 134-nt RNA, ends assumed", "together with": "150 mM KCl", "baseline": "input library", "reading": "higher = stronger binding", "shared flanks, not repeated": "GGGAGUUCUACAGUCCGACGAUC … UGGAAUUCUCGGGUGUCAAGG", "chain of UniProt Q13283 (whole entry, looked up)": "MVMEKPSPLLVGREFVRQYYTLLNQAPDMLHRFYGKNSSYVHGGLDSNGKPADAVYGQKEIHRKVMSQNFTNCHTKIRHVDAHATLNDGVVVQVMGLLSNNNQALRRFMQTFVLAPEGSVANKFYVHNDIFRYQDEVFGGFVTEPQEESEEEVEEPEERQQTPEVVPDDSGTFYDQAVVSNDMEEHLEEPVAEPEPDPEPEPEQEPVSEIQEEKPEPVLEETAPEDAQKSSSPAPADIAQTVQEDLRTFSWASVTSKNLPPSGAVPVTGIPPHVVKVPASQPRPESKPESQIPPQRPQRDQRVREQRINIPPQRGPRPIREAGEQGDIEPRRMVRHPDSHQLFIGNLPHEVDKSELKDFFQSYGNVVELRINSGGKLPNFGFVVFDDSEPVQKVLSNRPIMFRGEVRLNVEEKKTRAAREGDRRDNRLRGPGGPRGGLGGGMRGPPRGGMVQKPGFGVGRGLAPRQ"}
{"Strand": "CAAGUCCUGUGCUACACAUCGUAUGUACCGAAUCGGAAAAGGGGAAAAGGAAAAGGAAAGUAUUAUGUUACGCCGUUCGGAUCUGCACUU", "log2 enrichment": -0.165}
{"Strand": "UAACUUUAGAGGAGGAUCUGAUAGAUAUGGCAGUGGACGUGGAUUUGGGGAUGGCUAUAAUGGGUAUGGAGGAGGACCUGGAGGUGGCAA", "log2 enrichment": -0.792}
{"Strand": "UGUGCUACACAUCGUAUGUACCGAAUCGGGCCCCCCCGGGCCCCCCCGGGGCCCCCCCGGGGAAAGUAUUAUGUUACGCCGUUCGGAUCU", "log2 enrichment": -0.734}
{"Strand": "UCAAGUCCUGUGCUACACAUCGUAUGUACCGAAUCGGUUUGGAAAAAAAGGUGGAAAGUAUUAUGUUACGCCGUUCGGAUCUGCACUUCC", "log2 enrichment": -0.184}
{"Strand": "CCUCAAGUCCUGUGCUACACAUCGUAUGUACCGAAUCGGGGCGGGGCGGGCGGAAAGUAUUAUGUUACGCCGUUCGGAUCUGCACUUCCA", "log2 enrichment": -0.137}
{"Strand": "CUCAAGUCCUGUGCUACACAUCGUAUGUACCGAAUCGGUUGGGUUGGGGUUGGGAAAGUAUUAUGUUACGCCGUUCGGAUCUGCACUUCC", "log2 enrichment": 0.137}
{"Strand": "CCUCAAGUCCUGUGCUACACAUCGUAUGUACCGAAUCGGGGAGGAGGAGGGGAAAGUAUUAUGUUACGCCGUUCGGAUCUGCACUUCCAG", "log2 enrichment": -0.188}
{"Strand": "CUGUGCUACACAUCGUAUGUACCGAAUCGGGGAAAAAAAGGGGUUUUUGGGGAAAAAGGGGAAAGUAUUAUGUUACGCCGUUCGGAUCUG", "log2 enrichment": 0.933}
{"Strand": "CCUGUGCUACACAUCGUAUGUACCGAAUCGGGUUUUUUUGGUUUUUUUGGGGUUUUUUUGGAAAGUAUUAUGUUACGCCGUUCGGAUCUG", "log2 enrichment": -0.432}
{"Strand": "UCAAGUCCUGUGCUACACAUCGUAUGUACCGAAUCGGCCCCGGCCCCGGCCCCGGAAAGUAUUAUGUUACGCCGUUCGGAUCUGCACUUC", "log2 enrichment": -1.41}
{"data": "Sample 4", "target": "Microphthalmia-associated transcription factor, full length (MITF, Homo sapiens, UniProt O75030-10, residues 1-413)", "technique": "protein-binding microarray", "form": "hairpin DNA", "medium": "in vitro", "concentration": "not given", "setting": "whole hairpin DNA, median over replicate spots", "baseline": "not given", "reading": "higher = stronger binding"}
{"Strand": "CACTTAGCACGTGAGTTTGGTCCTCCAAACTCACGTGCTAAGTGACACTC", "median fluorescence [a.u.]": 21700}
{"Strand": "GAGGCCTAGCACGTGTTGCCTCCTGGCAACACGTGCTAGGCCTCACACTC", "median fluorescence [a.u.]": 19300}
{"Strand": "GAGGCCTAGCACGTCCTGCCTCCTGGCAGGACGTGCTAGGCCTCACACTC", "median fluorescence [a.u.]": 5790}
{"Strand": "CACTTAGCACGCGATTTTGGTCCTCCAAAATCGCGTGCTAAGTGACACTC (5mC at 12 32)", "median fluorescence [a.u.]": 7090}
{"Strand": "GAGGCCTAGCATGTGCTGCCTCCTGGCAGCACATGCTAGGCCTCACACTC", "median fluorescence [a.u.]": 10300}
{"Strand": "CACTTAGCACGTTATTTTGGTCCTCCAAAATAACGTGCTAAGTGACACTC", "median fluorescence [a.u.]": 5400}
{"Strand": "CACTTGGCACGTGATTTTGGTCCTCCAAAATCACGTGCCAAGTGACACTC", "median fluorescence [a.u.]": 27300}
{"Strand": "GAGGCCTAGCACGTGCTGCCTCCTGGCAGCACGTGCTAGGCCTCACACTC (5mC at 32)", "median fluorescence [a.u.]": 10800}
{"Strand": "CACTGAGCACGTGATTTTGGTCCTCCAAAATCACGTGCTCAGTGACACTC (5mC at 40)", "median fluorescence [a.u.]": 27200}
{"Strand": "GAGGCCTAGCGCGTGCTGCCTCCTGGCAGCACGCGCTAGGCCTCACACTC (5mC at 34)", "median fluorescence [a.u.]": 16500}
{"Strand": "CACTTAGCACGTGCTTTTGGTCCTCCAAAAGCACGTGCTAAGTGACACTC (5mC at 14)", "median fluorescence [a.u.]": 19500}
{"Strand": "CACTTAGCGCGTGATTTTGGTCCTCCAAAATCACGCGCTAAGTGACACTC (5mC at 8)", "median fluorescence [a.u.]": 14200}
{"Strand": "GAGGCCGAGCACGTGCTGCCTCCTGGCAGCACGTGCTCGGCCTCACACTC", "median fluorescence [a.u.]": 25600}
{"Strand": "GAGGCCCGGCACGTGCTGCCTCCTGGCAGCACGTGCCGGGCCTCACACTC (5mC at 7)", "median fluorescence [a.u.]": 22700}
{"note": "Some of these lines once more (sample 1):"}
{"Strand": "AATCTCGA", "E-score": -0.0246}
{"Strand": "ACACATCA", "E-score": -0.157}
{"Strand": "GTCTGGAA", "E-score": -0.083}
{"Strand": "CCGAATTC", "E-score": 0.0196}
{"Strand": "TAAGACGA", "E-score": -0.129}
{"Strand": "AATGGCGG", "E-score": 0.0513}
{"Strand": "GTCTCCAA", "E-score": -0.0576}
{"Strand": "ACTGCATC", "E-score": 0.00559}
{"Strand": "ATCTGCAT", "E-score": 0.0115}
{"Strand": "CACTCTCA", "E-score": -0.077}
